# Results pooled from the literature.
# Every numbered part comes from another study and shows a few of its results, in no order. Substitutions count along the parent as printed.

# Series 1
# Target: CCNE2, cyclin fold, Cln2 fusion (human)
# Method: yeast growth competition, sequencing
# Medium: yeast
# Setting: weak parent motif
# Relative to: not given
# Reading: higher = stronger binding
# Parent: ORC1 docking peptide (human); PRARKRLELGNLG; partner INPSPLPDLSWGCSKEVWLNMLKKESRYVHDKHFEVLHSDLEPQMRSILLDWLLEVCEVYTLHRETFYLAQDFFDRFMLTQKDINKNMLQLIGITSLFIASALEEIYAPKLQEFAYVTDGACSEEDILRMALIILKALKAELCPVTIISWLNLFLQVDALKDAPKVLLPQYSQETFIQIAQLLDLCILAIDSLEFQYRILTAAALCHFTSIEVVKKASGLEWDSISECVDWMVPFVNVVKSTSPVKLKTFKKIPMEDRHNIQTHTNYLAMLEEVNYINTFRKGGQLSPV
Change,normalised enrichment score
PRARKRLEGGNLG [L9G],0.596
PVARKRLELGNLG [R2V],0.75
PRARKRCELGNLG [L7C],0.459
PRARKRLELSNLG [G10S],0.36
PRARKRLELGNLL [G13L],0.384

# Series 2
# Target: RNA binding protein fox-1 homolog 2, RRM domain, GST-SBP tag (RBFOX2, Homo sapiens, UniProt O43251-10, residues 100-194)
# Method: RNA Bind-n-Seq
# Form: RNA
# Medium: in vitro
# Tested at: 365 nM
# Setting: natural RNA segment, single round, ends assumed
# Relative to: no-protein control
# Reading: higher = stronger binding
# Shared flanks, not repeated: GGGAGUUCUACAGUCCGACGAUC … UGGAAUUCUCGGGUGCCAA
# Construct (chain): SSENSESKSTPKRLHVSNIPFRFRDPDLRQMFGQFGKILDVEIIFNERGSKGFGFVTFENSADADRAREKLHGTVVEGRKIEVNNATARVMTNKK
Sequence,RBNS enrichment (R)
UUGUUGACUCUGAAACUUGUCACCUUGUCACCAGCUAGAUGUCAAGACUUGGCUGCCCUCUGAUGUGGGUGCUUCUGCCCCUUCCCUGUUCUAACUGUCCGACAGGCUCC,0.278
UAUUUUACACGCAGUUCGCCAAAUGGGAUUGCUCUGUAUAGUCAAAUUGGUGAUGGACAGAUGGACAGAAUGCAGAGGUACAUAGAUGAGCUGAGGCUGAUCCAGCUCCC,1.09
UUCUCUUAAGAGAGGCUGUGGGUAUGCUGGAGCUGGCCUUCCGGUCAGGCUCUGGGCAGCAGGUGUCAGGCUGCUCCUAUCAGUGAGUGGGGCCACUGCUGAUAUUUGGC,0.425
UUGGGGCCUGAGGAACAACUUUUGCAGGGUGUAUGUACAGUAGAAGGAGACAGAAGAGUUCUGAUGAUAGAUCUCUGCCUCAGUCUGUUGGCUGGCCUAAUCCCCAUGAU,0.32
AAAGGGAACUUUUUGUCUACGCUAAGUCCCUGGCUUCCUCUUAAUCGGUUGGUCUUGCUAAUUGAAGCUCAGAAAAAUAUAGAUGGUCUCUCCCGACCCUGUUUGUGGUG,1.68
GGAGACUAUUGUCUCCUAAACCCAGGACUAGAGUUCCCUCGUACUGUCACUCCUUUGGUCAUUAAAUGCACUGGGCUUGCCCGCACUUUGGCCUUCCUAGAACACUGCUU,0.333

# Series 3
# Target: Sal-like protein 4, full length isoform B (SALL4, Homo sapiens, UniProt Q9UJQ4-2, residues 1-616)
# Method: universal PBM
# Form: double-stranded DNA, one strand shown
# Medium: in vitro
# Tested at: not given
# Setting: 8-mer, flanks averaged, mean of replicates
# Reading: higher = stronger binding
Sequence,E-score
CGATTTTA,0.157
CGTTGCGA,-0.0841
ACAGAAAG,0.0245
ACACTAAA,0.192
ACGAGAGC,-0.112
GTCTCAAC,0.0167

# Further values, each from its own experiment
Molecule,target,test,system,conditions,how to read,endpoint,value
"PhoQ, residues 284 288 289 292 302 303 SLKLQV","PhoP, residues 12 14 15 18 19 NQAHL (Escherichia coli, UniProt P23836)","Sort-seq, item: YFP reporter",E. coli,"PhoQ-PhoP variant library, added: 10 µM Mg2+","relative to: high Mg2+ state, higher = stronger signaling",fold induction,1.19

# Repeated from above (series 2):
Sequence,RBNS enrichment (R)
UUGUUGACUCUGAAACUUGUCACCUUGUCACCAGCUAGAUGUCAAGACUUGGCUGCCCUCUGAUGUGGGUGCUUCUGCCCCUUCCCUGUUCUAACUGUCCGACAGGCUCC,0.278
UAUUUUACACGCAGUUCGCCAAAUGGGAUUGCUCUGUAUAGUCAAAUUGGUGAUGGACAGAUGGACAGAAUGCAGAGGUACAUAGAUGAGCUGAGGCUGAUCCAGCUCCC,1.09
UUCUCUUAAGAGAGGCUGUGGGUAUGCUGGAGCUGGCCUUCCGGUCAGGCUCUGGGCAGCAGGUGUCAGGCUGCUCCUAUCAGUGAGUGGGGCCACUGCUGAUAUUUGGC,0.425
